Published values gathered from unrelated publications.
Numbered parts are unrelated; each lists some results of a single study. Changes are numbered by the printed parent chain.

Sample 1
Target: ABI1, truncated, D143A, DHFR fusion (Arabidopsis thaliana)
Technique: DHFR PCA, deep sequencing
Sample: yeast
Setting: methotrexate growth selection, single substitutions
Together with: (+)-ABA 2500 µM
Relative to: wild-type fitted maximum
Direction: higher = stronger binding
Measurement: relative binding score
Parent: PYL1, truncated, DHFR fusion (Arabidopsis thaliana); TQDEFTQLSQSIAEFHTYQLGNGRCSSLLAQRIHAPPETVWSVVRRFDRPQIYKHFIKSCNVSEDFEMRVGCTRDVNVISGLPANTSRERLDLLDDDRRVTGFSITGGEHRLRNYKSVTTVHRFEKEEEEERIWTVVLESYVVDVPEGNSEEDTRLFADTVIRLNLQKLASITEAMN; partner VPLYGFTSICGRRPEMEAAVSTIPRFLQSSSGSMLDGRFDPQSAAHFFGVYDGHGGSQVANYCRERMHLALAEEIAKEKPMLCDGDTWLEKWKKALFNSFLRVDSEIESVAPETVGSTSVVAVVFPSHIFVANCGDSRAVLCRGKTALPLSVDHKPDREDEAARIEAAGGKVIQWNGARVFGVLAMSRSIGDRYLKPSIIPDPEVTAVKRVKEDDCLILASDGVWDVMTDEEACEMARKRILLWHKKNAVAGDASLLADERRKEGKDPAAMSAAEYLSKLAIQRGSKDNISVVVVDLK
R49P: 2.77%
Q19C: 98.6%
E109Q: 108%
I12R: 95.5%
F66W: 95.6%
D153V: 49.5%
V40L: 48.1%
E127M: 97.6%
S26W: 95.7%
D92H: 87.1%
Q167M: 96%
R111E: 73.6%
S63I: 90%
G107L: 77.2%
Y115T: 8.93%
Y141K: -14.5%

Sample 2
Target: CCND1, cyclin fold, Cln2 fusion (human)
Technique: yeast growth competition, sequencing
Sample: yeast
Setting: weak parent motif
Relative to: not given
Direction: higher = stronger binding
Measurement: normalised enrichment score
Parent: CENPC docking peptide (human); VKTKKRLNFDDKV; partner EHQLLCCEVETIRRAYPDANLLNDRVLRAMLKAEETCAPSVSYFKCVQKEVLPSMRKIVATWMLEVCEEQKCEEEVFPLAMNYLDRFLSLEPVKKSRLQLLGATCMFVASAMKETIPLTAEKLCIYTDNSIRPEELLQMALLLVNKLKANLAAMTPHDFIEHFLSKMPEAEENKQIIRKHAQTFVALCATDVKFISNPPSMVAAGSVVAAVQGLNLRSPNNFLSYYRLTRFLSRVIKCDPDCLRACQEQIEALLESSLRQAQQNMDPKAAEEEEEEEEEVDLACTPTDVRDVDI
L7A: 0.147
F9L: 0.0902
V13A: -0.394
D11A: 0.079
K5A: 0.149
R6A: 0.122
N8A: 0.495

Sample 3
Target: RING finger protein unkempt homolog, zinc fingers 1-6, GST-SBP tag (UNK, Homo sapiens, UniProt Q9C0B0, residues 30-357)
Technique: RNA Bind-n-Seq
Form: RNA
Sample: in vitro
Concentration: not given
Setting: RNA with constant flanks, human and mouse sites, ends assumed
Relative to: input RNA pool
Direction: higher = stronger binding
Measurement: bound/input enrichment
Constant ends, left off below: GGGAGUUCUACAGUCCGACGAUC … CAACAGAGGAUUGAGCAUCA
Residues (chain): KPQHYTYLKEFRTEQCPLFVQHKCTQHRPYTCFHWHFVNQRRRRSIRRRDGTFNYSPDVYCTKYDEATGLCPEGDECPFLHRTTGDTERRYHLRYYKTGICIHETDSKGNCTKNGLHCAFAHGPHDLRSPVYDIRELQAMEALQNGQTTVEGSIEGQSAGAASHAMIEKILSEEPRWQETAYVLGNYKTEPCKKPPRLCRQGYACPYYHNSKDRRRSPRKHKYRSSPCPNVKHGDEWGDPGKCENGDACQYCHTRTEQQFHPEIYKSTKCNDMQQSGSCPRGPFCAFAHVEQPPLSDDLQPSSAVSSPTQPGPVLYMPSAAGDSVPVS
AAAUAUAACACUUAAUUAGCAGUGAUUUUUUUUGUUUAUGUAAUAAUAACUAUAACUUUGUUAUGACUGUGAACCUUAAUUUUAACACUUUAAAUAUAGCAUAUUCCAUUGUUUAGAGAU: 14.9 ratio
AUUCCUCUGGAAACAGGACAAAAACAGUACAACGUAGAUUAUAAGCUGGAGACUUACCUGAAGAUUGCAAGGCUAUACCUGGAGGAUGACGAUCCCGUCCAGGCCGAGGCUUACAUAAAC: 0.322 ratio
UCAAAUAUAUAAGAGCCAAACUCUUUUCCAUUCCAUCUAAAAUGUUUUCAUUUAGUACUCUUCUUUCCUCCUACUCUAUGAACUUCAAAACAAAAACAAAACUUUGAGAGCAGCACAUGC: 0.92 ratio
GACUACUUCACUUGCAUAACUAAAGCUUAUGAAAUGUUAUCUGAUCCAGUGAAAAGACGAGCAUUUAACAGUGUAGAUCCUACUUUUGAUAACUCAGUUCCUUCUAAAAGUGAAGCAAAG: 0.0747 ratio
AGUGAGAACACCCUGCAGUUCUACAAUGAGAGGGUGGUGAUCAUGAACUCGAUCCUGGAGCGCAUGUGUGCCGACGUGCUGCAGCAGACAGCCACGCAGAUCAAGUUUCCCUCCACCGGG: 0.0901 ratio
GUGUUGGUACAGAGUGCUCUGUACCAGUGCUCAUCAUCCCUUCUUCAUACCAACGGUCCCUAGUUAUAGGAAUUUAAUAUUUUUAAAAGUUUUACAUUGCUGUAUAUUCAAAGAUUUGUU: 12.7 ratio
UAACCACAUCAAGAUGGUUGGGAAGCUGAAGCAGAACUUACUCUUGGCGUGUCUGGUGAUUAGUUCUGUGACCGUGUUUUACCUGGGCCAGCAUGCCAUGGAGUGCCAUCACCGAAUAGA: 0.282 ratio
UACAUUGUUGCCAAUUACUUUUCAGAGCUUUUCCAUUUGCUGUCCUCAGGAAAUUGCAAAACCAGAAAUCUUGUUUUGAAACUACUUUUAAAUAUGUCUGAAAAUCCAACUGCAGCCAGA: 0.184 ratio

Sample 4
Substance: PhoQ, residues 284 288 289 292 302 303 TNSAEL
Technique: Sort-seq
Measured: YFP reporter
Sample: E. coli
Setting: PhoQ-PhoP variant library
Together with: 10 µM Mg2+
Relative to: high Mg2+ state
Direction: higher = stronger signaling
Measurement: fold induction
PhoP, residues 12 14 15 18 19 TPWTL (Escherichia coli, UniProt P23836): 0.799
PhoP, residues 12 14 15 18 19 VGHWL (Escherichia coli, UniProt P23836): 2.13
PhoP, residues 12 14 15 18 19 NFFVT (Escherichia coli, UniProt P23836): 11.7
PhoP, residues 12 14 15 18 19 LHHYF (Escherichia coli, UniProt P23836): 23.5

Excerpt of the above (sample 4):
PhoP, residues 12 14 15 18 19 TPWTL (Escherichia coli, UniProt P23836): 0.799
PhoP, residues 12 14 15 18 19 VGHWL (Escherichia coli, UniProt P23836): 2.13
PhoP, residues 12 14 15 18 19 NFFVT (Escherichia coli, UniProt P23836): 11.7
PhoP, residues 12 14 15 18 19 LHHYF (Escherichia coli, UniProt P23836): 23.5
